Assay results of several laboratories.
Parts stem from different laboratories: compare values within a part only.

Block 1
Target: RNA binding protein fox-1 homolog 2, RRM domain, GST-SBP tag (RBFOX2, Homo sapiens, UniProt O43251-10, residues 100-194)
Technique: RNA Bind-n-Seq
Molecule type: RNA
Medium: in vitro
Tested at: 365 nM
Setting: natural RNA segment, single round, ends assumed
Baseline: no-protein control
Reading: higher = stronger binding
All sequences stand within: GGGAGUUCUACAGUCCGACGAUC … UGGAAUUCUCGGGUGCCAA
Target sequence (chain): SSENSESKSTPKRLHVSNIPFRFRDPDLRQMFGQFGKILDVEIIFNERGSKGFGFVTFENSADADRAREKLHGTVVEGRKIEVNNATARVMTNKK
Oligonucleotide	RBNS enrichment (R)
CUUCUAAAUUGAAGCUUGUUAAAAUAAUCACUGUAGUUAUGUGGUACACUAGUAUUUCUUAAAGCAGAGGUGAGUUGCGGAUAAGGUGGAUAAUAUGUGACUUUAGUCUA	0.671
UGGGGAGGGGUGUUUGAUUUCAUAAUGCCAAAACUUAACCUAUUGAAUGAAUUACAGUUUUUAUUACGGAAUCUCGCCGCUACCCCUGUUCCCCUCCUGUGUCCUUUUUC	0.503
UAGUGCCAUCUCCUCAUGAUUGUAGAAGCAGCUGAAUGAGUUUCUUCAGAUUUAAAAUGAAUAGCUGGACUCUGCUGGCUCAGUCUCCUCUCCUUUUUAACACACUUUCU	0.522
ACAAUGGUAAUUUGAUAUAUGGUAUUUAUAUUGGCAUUUUUCAACCCAGUGUCACUAGAUGUCACACACAUUUGUGGUGCUUUGAUGUUUGCAAGUCUAACCUCUGAACA	0.346
AAAGUUACUGUGGUAUCUAUGAGUUAUCAUCUUAGCUGUGUUAAAAAUGAAUUUUUACUAUGGCAGAUAUGGUAUGGAUCGUAAAAUUUUAAGCACUAAAAAUUUUUUCA	0.738
CUUCUCCCUCAGGCAACCCCGACAGACAGUGGCACUCCUGGUCCUGCUGUCUUGGUUUUGUCUUGGCUCUGGGAGGACUCUGAGGGGCAGUGCUCAGUUCAGACAAGGGG	0.389

Block 2
Target: Histone acetyltransferase KAT6A, both winged helices, GST fusion (KAT6A, Homo sapiens, UniProt Q92794, residues 1-181)
Technique: protein binding microarray
Molecule type: double-stranded DNA, one strand shown
Medium: in vitro
Tested at: not given
Setting: 8-mer, flanks averaged, mean of 2 arrays, mostly near background
Baseline: not given
Reading: higher = stronger binding
Residues (chain): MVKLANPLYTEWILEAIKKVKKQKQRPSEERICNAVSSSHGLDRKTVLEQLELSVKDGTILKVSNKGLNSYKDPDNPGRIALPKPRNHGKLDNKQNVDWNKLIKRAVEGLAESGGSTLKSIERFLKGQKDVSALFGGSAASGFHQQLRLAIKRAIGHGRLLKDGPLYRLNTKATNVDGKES
Oligonucleotide	E-score
AGATACAC	0.119
AGCGGTAC	0.283
AGAGAACT	-0.0325
CTGCACCC	-0.103

Block 3
Target: Interferon regulatory factor 7, full length, phosphomimetic (IRF7, Homo sapiens, UniProt Q92985, residues 1-503, S101K/S471D/S472D/S475D/S476D/S477D/S483D/S484D/S487D)
Chain of UniProt Q92985 (whole entry, unmodified, looked up): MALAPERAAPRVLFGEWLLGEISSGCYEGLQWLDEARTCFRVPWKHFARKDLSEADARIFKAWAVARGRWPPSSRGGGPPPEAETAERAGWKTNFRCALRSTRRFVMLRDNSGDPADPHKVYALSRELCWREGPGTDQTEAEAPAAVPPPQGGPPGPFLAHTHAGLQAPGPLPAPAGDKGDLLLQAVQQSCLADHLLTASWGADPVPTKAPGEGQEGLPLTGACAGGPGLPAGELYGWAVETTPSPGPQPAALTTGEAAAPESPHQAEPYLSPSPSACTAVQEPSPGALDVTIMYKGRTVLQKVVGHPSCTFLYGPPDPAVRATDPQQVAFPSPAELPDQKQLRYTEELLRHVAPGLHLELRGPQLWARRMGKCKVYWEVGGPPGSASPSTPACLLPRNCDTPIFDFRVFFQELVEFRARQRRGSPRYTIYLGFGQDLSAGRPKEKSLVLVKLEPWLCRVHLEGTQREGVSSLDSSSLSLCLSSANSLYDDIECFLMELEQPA
Technique: protein-binding microarray
Molecule type: double-stranded DNA, one strand shown
Medium: in vitro
Tested at: 250 nM
Setting: 60-bp whole probe
Added: salmon DNA 0.4 mg/ml
Baseline: random background probes
Reading: higher = stronger binding
All sequences stand within: GCCTAGCAC … GTCTTGATTCGCTTGACGCTGCTG
Oligonucleotide	log fluorescence [z-score]
GACGGACTGCTTTTCCAGACGTGCTAG	-0.0795
AGCTGTTTGAGAAATCAGATGGTGCTA	-0.275
AGGACCATCCCTTATAAATAGGTGCTA	0.191
TCATTCCTGATCTCTGGTCTTGTGCTA	0.92
GTCGGACTGCTTCTCCTGACGTGCTAG	0.194

Further values, each from its own experiment
Substance	target	assay	system	setting	how to read	quantity	value
PhoQ, residues 284 288 289 292 302 303 GASLAW	PhoP, residues 12 14 15 18 19 IFFTR (Escherichia coli, UniProt P23836)	Sort-seq, refers to: YFP reporter	E. coli	PhoQ-PhoP variant library, added: 10 µM Mg2+	baseline: high Mg2+ state, higher = stronger signaling	fold induction	5.35

Some of these lines once more (block 3):
Oligonucleotide	log fluorescence [z-score]
TCATTCCTGATCTCTGGTCTTGTGCTA	0.92
